Measurements of several laboratories.
Compare with care: the assays were run in different laboratories. Values joined by “and” are separate records of one study, mostly repeats; a detail may differ. ± marks the error that the study gave.
Method: steady-state kinetics
B1: enzyme N488A (Limosilactobacillus reuteri, UniProt Q8GP32); chain SADTNIENNDSSTVQVTTGDNDIAVKSVTLGSGQVSAASDTTIRTSANANSASSAANTQNSNSQVASSAAITSSTSSAASSNNTDSKAAQENTNTAKNDDTQKAAPANESSEAKNEPAVNVNDSSAAKNDDQQSSKKNTTAKLNKDAENVVKKAGIDPNSLTDDQIKALNKMNFSKAAKSGTQMTYNDFQKIADTLIKQDGRYTVPFFKASEIKNMPAATTKDAQTNTIEPLDVWDSWPVQDVRTGQVANWNGYQLVIAMMGIPNQNDNHIYLLYNKYGDNELSHWKNVGPIFGYNSTAVSQEWSGSAVLNSDNSIQLFYTRVDTSDNNTNHQKIASATLYLTDNNGNVSLAQVANDHIVFEGDGYYYQTYDQWKATNKGADNIAMRDAHVIEDDNGDRYLVFEASTGLENYQGEDQIYNWLNYGGDDAFNIKSLFRILSNDDIKSRATWAAAAIGILKLNKDEKNPKVAELYSPLISAPMVSDEIERPNVVKLGNKYYLFAATRLNRGSNDDAWMNANYAVGDNVAMVGYVADSLTGSYKPLNDSGVVLTASVPANWRTATYSYYAVPVAGKDDQVLVTSYMTNRNGVAGKGMDSTWAPSFLLQINPDNTTTVLAKMTNQGDWIWDDSSENLDMIGDLDSAALPGERDKPVDWDLIGYGLKP
B2: protein (uncultured bacterium HF130_AEPn_1, UniProt D0E8I5); chain MSLSNSSKVSVLISLLEKSRDLDYIGEAINQLEHSLQCAYFAQRSGADNEMVLAALLHDLGHYCNDTSFEDMGGYGVWQHEKVGADYLRGLGFSERVACLIEGHVAAKRYLVSSKASYLKNLSDASRKTLEYQGGPMDEGERRLFEEREDFKDCLKIRAWDEKGKQTDLKVPGPEHYRKMMEEHLSENQN
B3: enzyme (Streptomyces coelicolor, UniProt Q9F1Y6); chain MPDSGTLGTPPPEQGPTPPTTLPDVPAPVIPSASVTSAASDFLAALHPPVTVPDPAPPPPPAPAAGNPPDTVTGDSVLQRILRGPTGPGTTSLAPAVRYGRQPGPEAPASAPPAAGRAVPGLYHHPVPEPDPVRVEEVSRRIKRWAEDEVQLYPEEWEGQFDGFSVGRYMVGCHPDAPTVDHLMLATRLMVAENAVDDCYCEDHGGSPVGLGGRLLLAHTAIDHFHSTAEYTPTWQASLAADAPRRAYDSAMGYFVRAATPSQSDRYRHDMARLHLGYLAEGAWAQTGHVPEVWEYLAMRQFNNFRPCPTITDTVGGYELPADLHARPDMQRVIALAGNATTIVNDLYSYTKELNSPGRHLNLPVVIAEREQLCERDAYLKAVEVHNELQHSFEAAAADLAEACPLPPVLRFLRGVAAWVDGNHDWHRTNTYRYSLPDFW
B4: enzyme H323A (Acetivibrio thermocellus, UniProt A3DJ38); chain MKLTIPELSLVVLIGSSGSGKSTFAKKHFKPTEVISSDFCRGLVSDDENDQTVTGAAFDVLHYIVSKRLQLGKLTVVDATNVQESARKPLIEIAKDYHCFPVAVVFNLPEKVCQERNKNRTDRQVEEYVIRKHTQQLKKSIKGLQREGFRYVYILNSPEEVEEVVFERQPLWNNKKDEHGPFDIIGDIHGCYDELKMLLEKLGYLIEEVEGGVGSGKYRVTHPEGRKVLFLGDLVDRGPKITEVLKLVMGMVKSGIALCVPGNHDVKLLRKLNGRDVQITHGLDRTLEQLAKEPQEFIEEVKAFIDGLVSHYVLDDGKLVVAAAGMKEEFQGRGSGKVREFALYGETTGETDEYGLPVRYDWASDYRGKALVVYGHTPQAEVLKVNNTINIDTGCVFGGKLTAYRYPEREIVDVKALKTYYEPAKPFLPKEDMAERFEARTDNDILDINDVLGKKIITTRLMSSITIHEENSIAALEVMSRFAADPHWLIYLPPTMSPCETSKKEGMLEHPIEAFEYFRTRGVGKVVCEQKHMGSRAVVIVCKDSQVAEKRFGVLDGTAGICYTRTGRHFFDDMQLEAELIDRVRKVLDKSGFWGDFNTDWVCLDCELMPWSAKAQKLLEEQYSAVGISGRVVLDEAVKLLKQASLNKTVSFDVSRQTSGKNADINELLQRFTERSEMMQKYVEAYRKYCWPVNSIDDLKLAPFHILATEGKVHSDKNHIWHMDTIAKYCTQDDSLIMATNHILVDVTDAESVDKGIKWWEDLTASGGEGMVVKPYDFIVKNGRELLQPAVKCRGREYLRIIYGPEYTMDENIERLRNRAVGKKRSLALREFSLGMEALERFVRNEPLYRVHECVFGVLALESEPVDPRL
B5: sbnA (Staphylococcus aureus, UniProt A6QDA0); chain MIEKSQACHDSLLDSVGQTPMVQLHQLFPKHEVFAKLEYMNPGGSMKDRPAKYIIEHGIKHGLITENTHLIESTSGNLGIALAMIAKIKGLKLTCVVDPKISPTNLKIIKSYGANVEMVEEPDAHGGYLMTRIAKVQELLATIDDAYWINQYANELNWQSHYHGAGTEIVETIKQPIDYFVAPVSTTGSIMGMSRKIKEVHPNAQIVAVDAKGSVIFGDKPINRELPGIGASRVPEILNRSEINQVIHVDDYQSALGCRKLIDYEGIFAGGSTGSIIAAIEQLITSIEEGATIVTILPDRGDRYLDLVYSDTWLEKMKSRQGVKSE
B6: YjiA C66A/C67A/E37A (Escherichia coli, UniProt P24203); chain MNPIAVTLLTGFLGAGKTTLLRHILNEQHGYKIAVIANEFGEVSVDDQLIGDRATQIKTLTNGCIAASRSNELEDALLDLLDNLDKGNIQFDRLVIECTGMADPGPIIQTFFSHEVLCQRYLLDGVIALVDAVHADEQMNQFTIAQSQVGYADRILLTKTDVAGEAEKLHERLARINARAPVYTVTHGDIDLGLLFNTNGFMLEENVVSTKPRFHFIADKQNDISSIVVELDYPVDISEVSRVMENLLLESADKLLRYKGMLWIDGEPNRLLFQGVQRLYSADWDRPWGDEKPHSTMVFIGIQLPEEEIRAAFAGLRK
B7: enzyme L163H/N249W (Thermobifida fusca, UniProt Q47RK4); chain MTDVYILDAVRTPFGRYGGALSGIRPDDLAAHVLRALAERSPGLDPAAVDDVFFGDANGAGEDNRNVARMAALLAGWPTSVPGVTLNRLCGSGMESVIAANRAIAVGDASLAVAGGVESMSRAPWVLPKPAQGFPTGHETLYSTTLGWRMVNPAMPEQWTVSHGESTEQVAATYGISRAEQDAFALRSHERAARAWAEGVFDAEITQIPGAELERDESIRETSAEKLAALKPAFRPDGTITAGNASPLWDGAAALLIGDAAAAERVGREPLARIVSRGVAAVDPDVFGIGPVQAAEIALRRAGIGWDDLSVVELNEAFAAQSLACLKLWPDLDPEIVNPNGGAIAIGHPLGASGARIVGTLAHELHRRGGGWGLAAICIGVGQGLAVVLHR
B8: nitrilase (Rhodococcus rhodochrous, UniProt A4LA85); chain MVEYTNTFKVAAVQAQPVWFDAAKTVDKTVSIIAEAARNGCELVAFPEVFIPGYPYHIWVDSPLAGMAKFAVRYHENSLTMDSPHVQRLLDAARDHNIAVVVGISERDGGSLYMTQLIIDADGQLVARRRKLKPTHVERSVYGEGNGSDISVYDMPFARLGALNCWEHFQTLTKYAMYSMHEQVHVASWPGMSLYQPEVPAFGVDAQLTATRMYALEGQTFVVCTTQVVTPEAHEFFCENEEQRKLIGRGGGFARIIGPDGRDLATPLAEDEEGILYADIDLSAITLAKQAADPVGHYSRPDVLSLNFNQRRTTPVNTPLSTIHATHTFVPQFGALDGVRELNGADEQRALPSTHSDETDRATASI
B9: Lxyl-p1-1 A72T/V91S (Lentinula edodes, UniProt G8GLN9); chain YFSGLGLGSERSIFRRDLNSTGDESNSTQWPAPLANGGKSWASAFKKAKSTVTEMTVEELANITSGVIGLCSGVTGAVTRLGIPELCLQDGPIGPRGVHGSSQFPAGLTVAATWDRTLMYARARGMGQEFHDQGVHIALAPVTGGPLGRTPLNGRGWEGTFADPYACGEASYQSVKGLTDAGVATVSKHWIAYEQETSRNLYIEFDGVSQADIQLPISSNVDDLTMHELYMWSFAEAVRAGTNHIMCSYNRINNTHSCNNAKGLNQLLKTELNFQGGVVSDWGGQWDSVLSAENGLDVGMPGEGFLGELGDFWGTTLADLINNGTVSEDLVRDKVVRLLTGYYYLGQDINPPPPFVYNTIGAPTLNATSGYRNVRKPGTAELIKEIGSASVTLLKNTGSLPLKHPQRIAVLGNDATYNVLGPNACGLANSACDIDNLNGTLTTGGGSGSALSPYTITPLEALQKRAIEDNAEIAAVVANSNTTTGAEDAIAALLPDADVTFVFLNRYSEEGADAPDFSLGGDGDNLMDLAVTYSSNVVVVIHTTGVVDIEKWADNPNVTAILVAYLPGQEAGNSLVPVLYGDVAPSGKLPWTWGKSIDDYVPNGVVYTDAYSPQSNFTEGVFIDYRWFDKMGITPRYEFGFGLSYTTFTYSNLIVDHGRWAKDYSSVMETAEPFAEWDGTNSLYDVIFTVFATITNTGNLTGSEVAQLYISIPGDNQPVRQLRGFDKIKDLPVGDSAVVTFPIRRKDVSSWSVVDQLWYVPNGDFLISVGGSSRDLPLNTTWTP

Molecule	substrate	pH	temperature	notes	added	kcat
B1 (enzyme N488A)	OC[C@H]1O[C@@](CO)(O[C@H]2O[C@H](CO)[C@@H](O)[C@H](O)[C@H]2O)[C@@H](O)[C@@H]1O	pH 5.5	50 °C	apparent		370 s⁻¹ and 410 s⁻¹
B2 (protein)	NC[C@H](O)P(=O)(O)O	pH 7	25 °C	NaCl 150 mM	O2, Fe(II) 100 µM, ascorbate 100 µM	6.8 ± 0.3 s⁻¹
B3 (enzyme)	CC(C)=CCC/C(C)=C(\C)COP(=O)(O)OP(=O)(O)O	pH 6.7	30 °C			0.105 ± 0.007 s⁻¹
B4 (enzyme H323A)	Nc1ncnc2c1ncn2[C@@H]1O[C@H](CO)[C@H]2OP(=O)(O)O[C@H]21	pH 7.5	45 °C			9.1 ± 0.567 s⁻¹
B5 (sbnA)	N[C@@H](CCC(=O)O)C(=O)O	pH 8	25 °C		OPS	3.6 ± 0.06 s⁻¹
lovB H985A (Aspergillus terreus)	CCCC(=O)CC(=O)SCCNC(C)=O					0.572 s⁻¹
B6 (YjiA C66A/C67A/E37A)	Nc1nc2c(ncn2[C@@H]2O[C@H](COP(=O)(O)OP(=O)(O)OP(=O)(O)O)[C@@H](O)[C@H]2O)c(=O)[nH]1	pH 7.6	37 °C	apo, anaerobic	MgCl2 5 mM	0.0005 ± 0.0001 s⁻¹
B7 (enzyme L163H/N249W)	CC(C)(COP(=O)(O)OP(=O)(O)OC[C@H]1O[C@@H](n2cnc3c(N)ncnc32)[C@H](O)[C@@H]1OP(=O)(O)O)[C@@H](O)C(=O)NCCC(=O)NCCSC(=O)CCC(=O)O	pH 7.4	37 °C			0.0065 ± 0.0007 s⁻¹
B8 (nitrilase)	N#Cc1ccccn1	pH 7.5	25 °C			0.0001767 ± 1.67e-06 s⁻¹
B9 (Lxyl-p1-1 A72T/V91S)	[H][C@]12[C@H](OC(=O)c3ccccc3)[C@]3(O)C[C@H](OC(=O)[C@H](O)[C@@H](NC(=O)c4ccccc4)c4ccccc4)C(C)=C([C@@H](O)C(=O)[C@]1(C)[C@@H](O[C@@H]1OC[C@@H](O)[C@H](O)[C@H]1O)C[C@@]1([H])OC[C@@]21OC(C)=O)C3(C)C					3.32 ± 0.17 s⁻¹

For quick reference, copied from above:
Molecule	substrate	pH	temperature	notes	added	kcat
B3 (enzyme)	CC(C)=CCC/C(C)=C(\C)COP(=O)(O)OP(=O)(O)O	pH 6.7	30 °C			0.105 ± 0.007 s⁻¹
B2 (protein)	NC[C@H](O)P(=O)(O)O	pH 7	25 °C	NaCl 150 mM	O2, Fe(II) 100 µM, ascorbate 100 µM	6.8 ± 0.3 s⁻¹
